Assay results pooled from the literature.
Each line is one published result; not all experiments were run side by side. Values joined by “and” are separate records of one study, mostly repeats; a detail may differ. ± gives the spread as reported.
CHRM2: Muscarinic acetylcholine receptor M2 (CHRM2, Homo sapiens, UniProt P08172)
cathepsin L: cathepsin L (Capra hircus, UniProt A0A452FFI6)
HTR6: 5-hydroxytryptamine receptor 6 (HTR6, Homo sapiens, UniProt P50406)
CASP9: Caspase-9 (CASP9, Homo sapiens, UniProt P55211)
Uncharacterized protein: Uncharacterized protein (Trypanosoma cruzi, UniProt Q4DRC3)
DRD3: D(3) dopamine receptor (DRD3, Homo sapiens, UniProt P35462)
Sodium- and chloride-dependent glycine transporter 2: Sodium- and chloride-dependent glycine transporter 2 (Homo sapiens, UniProt Q9Y345)
KDM1A: Lysine-specific histone demethylase 1A (KDM1A, Homo sapiens, UniProt O60341)
SLC18A3: Vesicular acetylcholine transporter (SLC18A3, Homo sapiens, UniProt Q16572)

C[C@@H]1NC(=O)[C@H](C)NC(=O)[C@H](CCC(N)=O)NC(=O)C[C@@H](CCc2ccccc2)NC(=O)[C@@H]2CCCCN2C(=O)C(=O)C(C)(C)COC(=O)[C@@H](C)NC(=O)[C@H](CC(=O)O)NC1=O  Ki (FKBP1A (Homo sapiens, UniProt P62942); binding, fluorescence polarization competition; crude sample): 0.16 ± 0.06 µM
O=C1Nc2ccccc2N(C(=O)CN2CCC(CCCCNCCCCC3CCN(CCCN4C(=O)CCc5ccccc54)CC3)CC2)c2ccccc21  Ki (CHRM2; ligand displacement, radioligand): 0.000575 µM
COc1ccccc1/C=C/C(=N\NC(N)=O)c1ccccc1  Ki (cathepsin L; enzyme activity, competitive inhibitor; goat liver enzyme; pH 6.0, added: Z-Phe-Arg-4-methoxy-β-naphthylamide): 0.00031 ± 5e-06 µM
Clc1cc(CN2CCCC2)ccc1OCCCN1CCN(c2cccc3sccc23)CC1  Ki (HTR6; ligand displacement, radioligand): 0.418 µM
CCCN(CCC)CC1CCCCN1CCNC(=O)N1c2ccccc2NC(=O)c2cccnc21 (stereo not shown)  Ki (CHRM2; ligand displacement, radioligand; cell membranes): 0.0195 µM
C#CCNC(=O)C(CC(C)(C)F)NC(c1ccc(-c2ccc(S(C)(=O)=O)cc2)cc1)C(F)(F)F (stereo not shown)  Ki (Cathepsin K (CTSK, Homo sapiens, UniProt P43235); enzyme activity, inhibitor, fluorescence): 0.21 µM
NCc1cc(C(=O)NCCN2CCC(OC(=O)C(c3ccccc3)c3ccccc3)CC2)cc(C(=O)NCCN2CCN(CCCCC3CCN(CC(=O)N4c5ccccc5NC(=O)c5ccccc54)CC3)CC2)c1  Ki (CHRM2; ligand displacement, radioligand): 0.000692 µM
CC(C)C[C@@H]1NC(=O)[C@H](C)NC(=O)[C@H](CC2CCN(C(=N)N)CC2)NC(=O)[C@H](CO)NC(=O)[C@H](CCCNC(=N)N)NC(=O)[C@H](CCCCN)NC(=O)[C@@H]2CCCN2C(=O)[C@@H](N)CSSC[C@@H](C(=O)O)NC(=O)[C@H](Cc2ccccc2)NC1=O  Ki (F11 (Homo sapiens, UniProt P03951); enzyme activity, inhibitor, absorbance; pH 7.4): 12.1 µM
CC[C@H](C)[C@H](NC(C)=O)C(=O)N[C@H](C(=O)N[C@H](C(=O)N[C@@H](CN)C(=O)N[C@H](C=O)CC(=O)O)C(C)C)[C@@H](C)O  Ki (CASP9; enzyme activity, inhibitor, fluorescence; pH 7): 20.9 µM
O=[N+]([O-])c1ccccc1CO[C@@H](CO)[C@H](O)C[S@@+]1C[C@@H](O)[C@H](O)[C@H]1CO  Ki (GAA (Homo sapiens, UniProt P10253); enzyme activity, inhibitor, absorbance; pH 5.2): 0.17 µM
Nc1nc2c([C@@H]3N[C@H](COP(=O)(O)O)[C@@H](O)[C@H]3O)c[nH]c2c(=O)[nH]1  Ki (Uncharacterized protein; IMP formation, uncompetitive inhibitor; pH 8.3, 37 °C, added: hypoxanthine 120 µM, PRPP 1 mM): 36 ± 5 µM
CCn1c2ccccc2c2cc(CN[C@H]3CC[C@H](NC(=O)c4cc5ccccc5[nH]4)CC3)ccc21  Ki (DRD3; cell-free assay): 0.0521 µM
O=c1[nH]c(=O)c2ncn([C@@H]3O[C@H](COP(=O)(O)O)[C@@H](O)[C@H]3O)c2[nH]1  Ki (guaC (Escherichia coli, UniProt P60560); inhibitor): 28 ± 5 µM
O=C(COc1ccc2ccccc2c1)NCc1ccc(OP(=O)(O)O)c(OP(=O)(O)O)c1  Ki (Signal transducer and activator of transcription 5B, SH2 (STAT5B, Homo sapiens, UniProt P51692); ligand displacement, FP): 0.28 µM
Fc1cc(OCCCN2CCN(c3cccc4sccc34)CC2)ccc1CN1CCOCC1  Ki (HTR6; ligand displacement, radioligand): 0.322 µM
NC(=O)N/N=C(\C=C\c1cccc(Cl)c1)c1ccccc1  Ki (cathepsin L; enzyme activity, competitive inhibitor; goat liver enzyme; pH 6.0, added: Z-Phe-Arg-4-methoxy-β-naphthylamide): 5e-05 ± 5e-07 µM
CC1=CC(C)=[N+]2C1=C(CCCCCN1CCC(O)(c3ccc(Cl)cc3)CC1)c1c(C)cc(C)n1[B-]2(F)F  Ki (Sodium- and chloride-dependent glycine transporter 2; cell-free assay, mass spectrometry): 0.661 µM
COc1ccc(CCCN[C@@H]2CCC[C@H]2CN[C@@H]2CCC[C@H]2CNCCCCN[C@@H]2CCC[C@H]2CN)cc1  Ki (KDM1A; enzyme activity, inhibitor, absorbance): 6.3 µM
CCC[C@@H]1[C@H](O)[C@@H](O)[C@H](O)[C@@H](CO)N1C(=S)NCCc1ccccc1  Ki (beta-glucosidase (almond); competitive inhibitor; added: p-nitrophenyl glucopyranoside): > 2000 µM
Nc1ncnc2c(CN3C[C@H](CSc4cnccn4)[C@@H](O)C3)c[nH]c12  Ki (MTA/SAH nucleosidase (Campylobacter jejuni subsp. jejuni, UniProt Z9IB28FKP7); inhibitor; pH 7.4, 25 °C, added: MTA 1 mM): 0.0057 ± 0.0007 µM
CC1=CC[C@@H]2[C@H](C1)C2(C)C  Ki (chemosensory protein 5 (Mythimna separata, UniProt A0A5H2NAD7); binding, 1-NPN displacement; pH 7.4): 26.8 µM
COc1ccc(CCCN[C@@H]2CCC[C@H]2CN[C@@H]2CCC[C@H]2CNCCCCN[C@@H]2CCC[C@H]2CN)cc1Br  Ki (KDM1A; enzyme activity, inhibitor): 3.9 µM
CC(C)N1C[C@H](C)[C@H](NC(=O)c2cc3ccc(Br)cc3[nH]2)C1  Ki (DRD3; ligand displacement, radioligand; cell membranes): > 10 µM
O=C(c1ccc(F)cc1)C1CCN(C2Cc3c(O)cccc3CC2O)CC1 (single isomer, unassigned; (+))  Ki (SLC18A3; ligand displacement, radioligand): 0.00527 µM
CC[C@H](C)[C@H](NC(=O)[C@H](Cc1ccccc1)NC(=O)[C@H](CCC(=O)O)NC(=O)[C@H](CCCN=C(N)N)NC(=O)CNC(=O)[C@H](CO)NC(=O)[C@H](CC(C)C)NC(=O)[C@H](CCCN=C(N)N)NC(=O)[C@@H](NC(=O)CNC(=O)[C@H](Cc1ccc(O)cc1)NC(=O)[C@@H]1CCCN1C(=O)[C@H](C)NC(=O)[C@H](C)NC(=O)[C@@H](N)CCCN=C(N)N)C(C)C)C(=O)N[C@@H](CCCN=C(N)N)C(=O)N[C@@H](C)C(=O)N[C@H](C(=O)N[C@H](C(=O)N[C@@H](Cc1ccccc1)C(=O)N[C@H](C(=O)N[C@@H](CO)C(=O)NCC(=O)NCC(=O)N[C@@H](CO)C(=O)N[C@@H](CCCN=C(N)N)C(=O)N[C@@H](Cc1c[nH]c2ccccc12)C(=O)O)[C@@H](C)O)[C@@H](C)CC)C(C)C  Ki (RXFP3 (Homo sapiens, UniProt Q9NSD7); ligand displacement): 1.78 µM
CCC[C@H]1N[C@H](CO)[C@@H](O)[C@H](O)[C@H]1O  Ki (beta-glucosidase (almond); competitive inhibitor; added: p-nitrophenyl glucopyranoside): > 2000 µM
OC[C@@H](CNCc1cn2cc(Cl)ccc2n1)CC1CCCC1  Ki (DRD3; ligand displacement, radioligand; cell membranes): 5.43 µM
Nc1nc(O)c2[nH]cc(CN[C@H](CO)CCP(=O)(O)O)c2n1  Ki (Uncharacterized protein; IMP formation, uncompetitive inhibitor; pH 8.3, 37 °C, added: hypoxanthine 120 µM, PRPP 1 mM): 0.6 to 1.6 µM and 0.6 µM
CC(=O)N[C@@H](CCC(N)=O)C(=O)N[C@@H](CC(=O)O)C(=O)N[C@H](C(=O)N[C@@H](CCCNC(=N)N)C(=O)N[C@H](C=O)CC(=O)O)[C@@H](C)O  Ki (CASP9; enzyme activity, inhibitor, fluorescence; pH 7): > 100 µM
O=C(c1ccc(=O)n(CCF)c1)C1CCN(C2Cc3ccccc3CC2O)CC1 (single isomer, unassigned; (+))  Ki (SLC18A3; ligand displacement, radioligand): 0.00435 µM
Clc1cc(CN2CCCCC2)ccc1OCCCN1CCN(c2cccc3sccc23)CC1  Ki (HTR6; ligand displacement, radioligand): 0.375 µM
CCCCCCOc1ccc(C(=O)OCCN2CC=CCC2)cc1  Ki (CHRM2; ligand displacement, radioligand; cell membranes): 3.24 µM
CCC(=O)NCc1cc(C(=O)NCCN2CCC(OC(=O)C(c3ccccc3)c3ccccc3)CC2)cc(C(=O)NCCN2CCN(CCCCC3CCN(CC(=O)N4c5ccccc5NC(=O)c5ccccc54)CC3)CC2)c1  Ki (CHRM2; ligand displacement, radioligand): 0.00115 µM
CC[C@H](C)[C@H](NC(=O)[C@H](Cc1ccc(O)cc1)NC(=O)[C@@H]1C[C@@H](O)CN1C(=O)[C@H](C)NC(=O)[C@@H](N)CC(C)C)C(=O)NCC(=O)NCC(=O)N[C@H](CCCNC(=N)N)C(=O)N[C@H](CCCNC(=N)N)C(=O)N[C@H](CCCNC(=N)N)C(=O)N[C@H](CCCNC(=N)N)C(=O)N[C@H](CCCNC(=N)N)C(=O)N[C@H](CCCNC(=N)N)C(=O)N[C@H](CCCNC(=N)N)C(=O)N[C@H](CCCNC(=N)N)C(=O)N[C@H](CCCNC(=N)N)C(=O)O  Ki (Von Hippel-Lindau disease tumor suppressor/Elongin B/Elongin C (Homo sapiens, UniProt P40337+Q15369+Q15370); binding, fluorescence polarization competition; 1 h, pH 7.5, added: HIF peptide tracer 12.5 nM): 0.026 µM
CC(=O)Nc1ccc(-n2cnc(C(=O)NCc3cccs3)c2)nc1  Ki (Alpha-synuclein, fibril (SNCA, Homo sapiens, UniProt P37840); ligand displacement, radioligand): 0.388 µM
CCC(=O)NCCNC(=O)CCc1cn(CCCCC2CCN(CC(=O)N3c4ccccc4NC(=O)c4ccccc43)CC2)cn1  Ki (CHRM2; ligand displacement, radioligand): 0.000776 µM
CC1=CC(C)=[N+]2C1=C(CCCCCN1CCC(O)(c3ccccc3Cl)CC1)c1c(C)cc(C)n1[B-]2(F)F  Ki (Sodium- and chloride-dependent glycine transporter 2; cell-free assay, mass spectrometry): 3.47 µM
O=c1[nH]cnc2c(CN[C@@H](CO)CCP(=O)(O)O)c[nH]c12  Ki (Uncharacterized protein; IMP formation, uncompetitive inhibitor; pH 8.3, 37 °C, added: hypoxanthine 120 µM, PRPP 1 mM): 38 ± 4 µM
NC(=O)N/N=C(\C=C\c1ccccc1)c1ccccc1  Ki (cathepsin L; enzyme activity, competitive inhibitor; goat liver enzyme; pH 6.0, added: Z-Phe-Arg-4-methoxy-β-naphthylamide): 0.00036 ± 4e-06 µM
CN1CCN(CCCCC2CCN(CC(=O)N3c4ccccc4NC(=O)c4ccccc43)CC2)CC(N)C1 (stereo not shown)  Ki (CHRM2; ligand displacement, radioligand): 0.00214 µM
COc1cccc(C(=O)CC(N)C(=O)O)c1 (stereo not shown)  Ki (Kynureninase (Homo sapiens, UniProt Q16719); enzyme activity, inhibitor): 15 µM
CCCCNC(=S)N1[C@H](CCC)[C@H](O)[C@@H](O)[C@H](O)[C@H]1CO  Ki (beta-glucosidase (almond); competitive inhibitor; added: p-nitrophenyl glucopyranoside): > 2000 µM
N=C(NO)NCCC[C@H](N)C(=O)O  Ki (Arginase (Schistosoma mansoni, UniProt Q6WVP6); enzyme activity, inhibitor, absorbance; pH 8.5): 3.7 µM

Some of these lines once more:
NCc1cc(C(=O)NCCN2CCC(OC(=O)C(c3ccccc3)c3ccccc3)CC2)cc(C(=O)NCCN2CCN(CCCCC3CCN(CC(=O)N4c5ccccc5NC(=O)c5ccccc54)CC3)CC2)c1  Ki (CHRM2; ligand displacement, radioligand): 0.000692 µM
CC(C)C[C@@H]1NC(=O)[C@H](C)NC(=O)[C@H](CC2CCN(C(=N)N)CC2)NC(=O)[C@H](CO)NC(=O)[C@H](CCCNC(=N)N)NC(=O)[C@H](CCCCN)NC(=O)[C@@H]2CCCN2C(=O)[C@@H](N)CSSC[C@@H](C(=O)O)NC(=O)[C@H](Cc2ccccc2)NC1=O  Ki (F11 (Homo sapiens, UniProt P03951); enzyme activity, inhibitor, absorbance; pH 7.4): 12.1 µM
CC[C@H](C)[C@H](NC(C)=O)C(=O)N[C@H](C(=O)N[C@H](C(=O)N[C@@H](CN)C(=O)N[C@H](C=O)CC(=O)O)C(C)C)[C@@H](C)O  Ki (CASP9; enzyme activity, inhibitor, fluorescence; pH 7): 20.9 µM
O=[N+]([O-])c1ccccc1CO[C@@H](CO)[C@H](O)C[S@@+]1C[C@@H](O)[C@H](O)[C@H]1CO  Ki (GAA (Homo sapiens, UniProt P10253); enzyme activity, inhibitor, absorbance; pH 5.2): 0.17 µM
Nc1nc2c([C@@H]3N[C@H](COP(=O)(O)O)[C@@H](O)[C@H]3O)c[nH]c2c(=O)[nH]1  Ki (Uncharacterized protein; IMP formation, uncompetitive inhibitor; pH 8.3, 37 °C, added: hypoxanthine 120 µM, PRPP 1 mM): 36 ± 5 µM
CCn1c2ccccc2c2cc(CN[C@H]3CC[C@H](NC(=O)c4cc5ccccc5[nH]4)CC3)ccc21  Ki (DRD3; cell-free assay): 0.0521 µM
